Experimental data from different studies.
Each line is one published result; not all experiments were run side by side. ± marks the error that the study gave.
CDK2 with cyclin A2: Cyclin-dependent kinase 2, with cyclin A2 (CDK2, Homo sapiens, UniProt P24941)
MERTK: Tyrosine-protein kinase Mer (MERTK, Homo sapiens, UniProt Q12866)
UniProt Q12866, sequence (whole entry, looked up): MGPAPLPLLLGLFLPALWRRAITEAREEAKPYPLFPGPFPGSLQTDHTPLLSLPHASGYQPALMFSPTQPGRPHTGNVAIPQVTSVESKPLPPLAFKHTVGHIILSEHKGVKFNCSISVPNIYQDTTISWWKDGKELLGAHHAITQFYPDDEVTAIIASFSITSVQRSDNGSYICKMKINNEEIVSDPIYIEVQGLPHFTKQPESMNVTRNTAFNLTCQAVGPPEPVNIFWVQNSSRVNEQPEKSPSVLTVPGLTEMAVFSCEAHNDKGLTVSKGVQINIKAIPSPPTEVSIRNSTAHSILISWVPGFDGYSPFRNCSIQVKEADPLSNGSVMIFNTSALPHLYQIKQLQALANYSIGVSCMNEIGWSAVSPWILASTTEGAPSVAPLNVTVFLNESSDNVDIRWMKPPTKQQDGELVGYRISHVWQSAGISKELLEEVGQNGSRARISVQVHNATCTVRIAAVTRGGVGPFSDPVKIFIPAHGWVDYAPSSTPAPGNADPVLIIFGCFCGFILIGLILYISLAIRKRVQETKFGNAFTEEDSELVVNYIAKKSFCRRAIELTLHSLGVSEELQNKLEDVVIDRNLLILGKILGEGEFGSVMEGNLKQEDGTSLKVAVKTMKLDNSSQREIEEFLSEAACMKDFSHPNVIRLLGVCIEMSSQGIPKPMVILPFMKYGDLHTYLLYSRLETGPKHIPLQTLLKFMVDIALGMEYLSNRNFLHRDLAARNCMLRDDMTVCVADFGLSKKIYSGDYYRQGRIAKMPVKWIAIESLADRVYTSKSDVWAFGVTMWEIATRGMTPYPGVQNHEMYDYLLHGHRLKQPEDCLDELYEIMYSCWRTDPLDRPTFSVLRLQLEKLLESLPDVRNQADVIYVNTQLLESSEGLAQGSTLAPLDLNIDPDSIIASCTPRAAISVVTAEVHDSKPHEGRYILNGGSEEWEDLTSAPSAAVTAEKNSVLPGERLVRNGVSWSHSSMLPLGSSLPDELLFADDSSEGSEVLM
UniProt P45984, sequence (whole entry, looked up): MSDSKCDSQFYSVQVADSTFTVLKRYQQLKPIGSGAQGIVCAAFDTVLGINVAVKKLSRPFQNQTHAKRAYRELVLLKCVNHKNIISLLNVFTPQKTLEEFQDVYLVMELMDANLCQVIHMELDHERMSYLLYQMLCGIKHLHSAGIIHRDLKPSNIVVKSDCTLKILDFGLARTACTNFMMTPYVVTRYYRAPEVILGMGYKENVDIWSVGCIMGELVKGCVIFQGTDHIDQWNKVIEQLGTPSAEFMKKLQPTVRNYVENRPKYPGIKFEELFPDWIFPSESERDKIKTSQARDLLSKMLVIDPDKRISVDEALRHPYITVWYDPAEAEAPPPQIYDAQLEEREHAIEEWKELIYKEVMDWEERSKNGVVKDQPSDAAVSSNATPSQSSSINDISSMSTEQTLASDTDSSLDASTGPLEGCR
UniProt Q96PF2, sequence (whole entry, looked up): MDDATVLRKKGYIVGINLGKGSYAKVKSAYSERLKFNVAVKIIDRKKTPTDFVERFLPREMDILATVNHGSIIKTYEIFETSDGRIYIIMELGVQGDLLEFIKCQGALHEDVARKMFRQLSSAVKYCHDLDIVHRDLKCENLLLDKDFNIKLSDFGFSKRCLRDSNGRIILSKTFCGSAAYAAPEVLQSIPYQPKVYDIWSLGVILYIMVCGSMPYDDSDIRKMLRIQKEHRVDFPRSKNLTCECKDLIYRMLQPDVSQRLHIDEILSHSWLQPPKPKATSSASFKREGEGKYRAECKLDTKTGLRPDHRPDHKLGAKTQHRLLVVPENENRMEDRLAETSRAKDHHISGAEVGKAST
UniProt P08069, sequence (whole entry, looked up): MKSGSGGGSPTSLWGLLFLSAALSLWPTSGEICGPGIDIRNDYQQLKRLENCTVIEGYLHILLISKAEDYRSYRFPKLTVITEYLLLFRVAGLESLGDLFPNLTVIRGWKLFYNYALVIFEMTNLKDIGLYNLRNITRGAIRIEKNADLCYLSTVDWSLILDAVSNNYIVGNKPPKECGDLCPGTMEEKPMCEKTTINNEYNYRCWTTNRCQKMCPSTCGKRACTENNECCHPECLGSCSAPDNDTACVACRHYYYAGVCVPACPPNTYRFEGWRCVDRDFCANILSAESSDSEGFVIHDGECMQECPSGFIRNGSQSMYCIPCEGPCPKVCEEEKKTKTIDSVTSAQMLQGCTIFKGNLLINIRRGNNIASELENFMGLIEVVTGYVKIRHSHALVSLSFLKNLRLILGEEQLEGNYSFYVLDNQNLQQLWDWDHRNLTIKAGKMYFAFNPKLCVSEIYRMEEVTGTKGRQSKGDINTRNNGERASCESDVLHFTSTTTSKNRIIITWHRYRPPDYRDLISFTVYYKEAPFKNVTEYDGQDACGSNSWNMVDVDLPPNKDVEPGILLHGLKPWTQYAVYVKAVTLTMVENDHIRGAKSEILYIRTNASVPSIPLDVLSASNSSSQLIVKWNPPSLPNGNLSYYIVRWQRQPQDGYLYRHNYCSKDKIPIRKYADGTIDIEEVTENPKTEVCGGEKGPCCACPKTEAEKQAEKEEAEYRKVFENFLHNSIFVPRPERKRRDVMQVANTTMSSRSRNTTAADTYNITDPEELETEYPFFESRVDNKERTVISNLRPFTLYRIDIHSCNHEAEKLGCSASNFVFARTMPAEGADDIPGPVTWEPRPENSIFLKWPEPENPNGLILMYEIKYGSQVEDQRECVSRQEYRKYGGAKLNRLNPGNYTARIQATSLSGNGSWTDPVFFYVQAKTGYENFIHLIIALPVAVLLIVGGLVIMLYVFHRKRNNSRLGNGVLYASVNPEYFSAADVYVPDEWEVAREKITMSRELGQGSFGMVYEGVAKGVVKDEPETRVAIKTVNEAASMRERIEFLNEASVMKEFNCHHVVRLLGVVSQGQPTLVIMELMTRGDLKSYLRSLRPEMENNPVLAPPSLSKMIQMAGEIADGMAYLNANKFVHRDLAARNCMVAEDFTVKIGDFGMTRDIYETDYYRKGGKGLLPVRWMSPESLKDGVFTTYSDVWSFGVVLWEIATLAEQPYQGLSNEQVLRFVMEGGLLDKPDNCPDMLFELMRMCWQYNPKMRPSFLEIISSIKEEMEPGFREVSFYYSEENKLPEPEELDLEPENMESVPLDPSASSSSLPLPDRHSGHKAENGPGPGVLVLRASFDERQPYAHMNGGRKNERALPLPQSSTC
UniProt P0C264, sequence (whole entry, looked up): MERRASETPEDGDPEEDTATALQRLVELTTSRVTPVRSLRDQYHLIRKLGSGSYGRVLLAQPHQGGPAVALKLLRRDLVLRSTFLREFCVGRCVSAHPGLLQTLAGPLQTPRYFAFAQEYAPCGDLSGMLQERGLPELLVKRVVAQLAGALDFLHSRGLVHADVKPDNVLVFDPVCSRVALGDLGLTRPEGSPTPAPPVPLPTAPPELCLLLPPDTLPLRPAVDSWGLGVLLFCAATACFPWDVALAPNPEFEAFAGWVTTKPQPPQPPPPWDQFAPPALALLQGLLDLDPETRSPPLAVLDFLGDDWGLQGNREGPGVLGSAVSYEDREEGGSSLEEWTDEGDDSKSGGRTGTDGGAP
UniProt Q15303, sequence (whole entry, looked up): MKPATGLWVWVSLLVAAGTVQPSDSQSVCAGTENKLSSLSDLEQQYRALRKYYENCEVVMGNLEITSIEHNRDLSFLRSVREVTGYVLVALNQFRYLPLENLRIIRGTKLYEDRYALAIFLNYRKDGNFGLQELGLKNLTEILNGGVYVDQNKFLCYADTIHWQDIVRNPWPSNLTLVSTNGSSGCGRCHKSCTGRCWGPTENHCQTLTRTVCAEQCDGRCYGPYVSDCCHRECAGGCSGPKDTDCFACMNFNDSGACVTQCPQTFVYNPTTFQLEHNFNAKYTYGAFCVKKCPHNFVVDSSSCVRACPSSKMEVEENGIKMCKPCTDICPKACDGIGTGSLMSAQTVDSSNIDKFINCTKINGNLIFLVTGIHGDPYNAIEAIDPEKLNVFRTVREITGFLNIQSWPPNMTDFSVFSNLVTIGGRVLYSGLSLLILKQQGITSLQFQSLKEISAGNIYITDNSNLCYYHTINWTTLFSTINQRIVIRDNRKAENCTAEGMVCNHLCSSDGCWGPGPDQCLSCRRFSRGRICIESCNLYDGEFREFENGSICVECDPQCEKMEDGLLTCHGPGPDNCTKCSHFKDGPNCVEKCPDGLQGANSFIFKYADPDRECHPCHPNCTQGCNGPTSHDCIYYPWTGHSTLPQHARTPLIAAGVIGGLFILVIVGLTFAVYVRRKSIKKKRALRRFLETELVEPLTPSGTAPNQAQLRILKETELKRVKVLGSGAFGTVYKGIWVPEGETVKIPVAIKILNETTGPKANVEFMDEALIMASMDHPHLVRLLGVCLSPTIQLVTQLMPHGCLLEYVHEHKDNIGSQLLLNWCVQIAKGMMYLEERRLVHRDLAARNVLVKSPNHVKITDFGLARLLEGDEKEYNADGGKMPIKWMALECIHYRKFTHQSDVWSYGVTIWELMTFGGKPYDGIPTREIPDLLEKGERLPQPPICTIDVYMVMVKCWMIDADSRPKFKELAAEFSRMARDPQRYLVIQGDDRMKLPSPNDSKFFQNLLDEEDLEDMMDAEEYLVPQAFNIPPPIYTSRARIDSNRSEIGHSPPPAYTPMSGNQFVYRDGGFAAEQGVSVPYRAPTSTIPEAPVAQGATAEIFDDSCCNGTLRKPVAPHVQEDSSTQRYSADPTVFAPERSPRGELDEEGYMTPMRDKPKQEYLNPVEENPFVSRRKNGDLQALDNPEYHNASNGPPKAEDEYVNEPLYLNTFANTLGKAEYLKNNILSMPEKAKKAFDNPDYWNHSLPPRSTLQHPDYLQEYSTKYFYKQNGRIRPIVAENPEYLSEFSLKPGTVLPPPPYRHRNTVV

`CC(=O)Nc1c(N)nc(SCC(=O)NN)[nH]c1=O` has a remaining activity of 69.1% (CDK2 with cyclin A2; kinase activity; 20 nM).
With `COc1cc(N2CCN(C)CC2)ccc1Nc1nc(N)n(C(=S)NCc2c(Cl)cccc2Cl)n1` the remaining activity was 0.1% (Serine/threonine-protein kinase DCLK2 (DCLK2, Homo sapiens, UniProt Q8N568); enzyme activity; 10 µM; relative to: control).
`C=CC(=O)N1CCC[C@@H](n2nc(-c3ccc(Oc4ccccc4)cc3)c3c(N)ncnc32)C1` has a remaining activity of 2.3 ± 0.2% (Tyrosine-protein kinase ITK/TSK (ITK, Homo sapiens, UniProt Q08881); kinase activity, inhibitor, HotSpot radiometric; 100 nM, added: ATP 10 µM).
`COc1cc(Nc2ncc3c(n2)-c2ccc(Cl)cc2C(c2c(F)cccc2OC)=NC3)ccc1C(=O)O` gave a remaining activity of 79% (FGFR4; kinase activity; 1 µM).
`COc1ccc(F)cc1C(=O)NCc1ccc(-c2nn([C@@H](C)C(F)(F)F)c(N)c2C(N)=O)cc1` gave a remaining activity of 2.6 ± 0.6% (Receptor tyrosine-protein kinase erbB-4 (ERBB4, Homo sapiens, UniProt Q15303); kinase activity, inhibitor, HotSpot radiometric; 1000 nM, added: ATP at Km).
The remaining activity of `C=CC(=O)N1CCC[C@@H](n2nc(-c3ccc(Oc4ccccc4)cc3)c3c(N)ncnc32)C1` is reported as 87.6% (Testis-specific serine/threonine-protein kinase 2 (TSSK2, Homo sapiens, UniProt Q96PF2); 0.1 µM).
For `CNC(=O)c1cc(Oc2ccc(NC(=O)Nc3ccc(Cl)c(C(F)(F)F)c3)cc2)ccn1`, the remaining activity was 26.1% (CDK2 with cyclin A2; kinase activity; 500 nM).
With `COc1cc(-c2cncc3c2CN(C)Cc2cc(N4CCNCC4)ccc2-3)cc(OC)c1OC` the remaining activity was 94% (Phosphatidylinositol 4,5-bisphosphate 3-kinase catalytic subunit delta isoform, with p85 alpha (Pik3cd, Mus musculus, UniProt O35904); kinase activity; 1 µM, p110d/p85a)(m mouse, added: ATP 10 µM; relative to: DMSO).
For `CNc1ncc2c(/C=C/C(=O)N3CCC(OC)CC3)nn(Cc3cccc(C(F)(F)F)c3)c2n1`, the remaining activity was 88% (MERTK; kinase activity, inhibitor; 1 µM; relative to: untreated control).
For `Cc1cc(NC(=O)c2cccc(NC(=O)/C=C/CN(C)C)c2)ccc1Nc1nccc(-c2cccnc2)n1`, the remaining activity was 1.01 (Mitogen-activated protein kinase 9 (MAPK9, Homo sapiens, UniProt P45984); enzyme activity, inhibitor; 8.363e-05 µM, unit not given; relative to: vehicle).
`CC(=O)Nc1c(N)nc(SCC(=O)N/N=C/c2ccc([N+](=O)[O-])cc2)[nH]c1=O` has a remaining activity of 62.4% (CDK2 with cyclin A2; kinase activity; 100 nM).
With `COc1cc(F)ccc1-c1ncnc(Nc2cccc(C[S@](C)(=N)=O)c2)n1` the remaining activity was 58% (MERTK; kinase activity; 10 µM, added: 10 µM ATP).
For `O=C(NC1CCC1)c1ccc2nc(-c3cccc(NS(=O)(=O)NCCN4CCCCC4)c3)cn2c1`, the remaining activity was 84% (Uncharacterized serine/threonine-protein kinase SBK3 (SBK3, Homo sapiens, UniProt P0C264); enzyme activity; 10 µM).
For `O=C(O)c1ccc(Nc2ncc3c(n2)-c2ccc(Cl)cc2C(c2c(F)cccc2F)=NC3)cc1`, the remaining activity was 98% (human PhKγ2(h); kinase activity; 1 µM).
`Cc1cc(Nc2cc(N3CCN(C)CC3)nc(Sc3ccc(NC(=O)C4CC4)cc3)n2)[nH]n1` gave a remaining activity of 100% (Insulin-like growth factor 1 receptor, activated (IGF1R, Homo sapiens, UniProt P08069); kinase activity; 0.03 µM, activated kinase; relative to: control).
